# Measured values from different studies.
# Compare with care: the assays were run in different laboratories. ± gives the spread as reported.
Compound,assay,system,conditions,scale,endpoint,result
[Ga+3].[O-]c1ccc(Br)c2cccnc12.[O-]c1ccc(Br)c2cccnc12.[O-]c1ccc(Br)c2cccnc12,,oil/water,pH 5.4,,partition coefficient,28.5
CC[C@H](C)[C@H](NC(=O)[C@H](C)NC(=O)CNC(=O)[C@H](CCCCN)NC(=O)[C@@H](NC(=O)[C@H](CC(C)C)NC(=O)[C@H](C)NC(=O)CNC(=O)[C@H](CC(C)C)NC(=O)[C@@H](N)Cc1ccccc1)[C@@H](C)CC)C(=O)N[C@@H](Cc1c[nH]cn1)C(=O)NCC(=O)NCC(=O)N[C@@H](CCCNC(=N)N)C(=O)N[C@@H](Cc1ccccc1)C(=O)N[C@H](C(=O)N[C@@H](Cc1c[nH]cn1)C(=O)NCC(=O)N[C@@H](CCSC)C(=O)N[C@H](C(=O)N[C@@H](CCC(N)=O)C(=O)N[C@@H](CC(N)=O)C(=O)N[C@@H](Cc1c[nH]cn1)C(=O)N[C@@H](Cc1c[nH]cn1)C(N)=O)[C@@H](C)CC)[C@@H](C)CC,,"zebrafish embryos 28 hpf, E3 medium",1 h,,acute toxic concentration,25 µM
CC(CCC(=O)NCC(=O)O)C1CCC2C3CCC4CC(OC5OC(C(=O)O)C(O)C(O)C5O)CCC4(C)C3CC(O)C12C (stereo not shown),refers to: glucuronide to parent ratio,"women, plasma",dose not given,reference: T/C over T/T,ratio of metabolic ratios,1.87
C[C@@H](O)[C@H](NC(=O)[C@H](Cc1c[nH]c2ccccc12)NC(=O)[C@H](CCCNC(=N)N)NC(=O)[C@H](Cc1c[nH]c2ccccc12)NC(=O)[C@H](CCCNC(=N)N)NC(=O)CNC(=O)[C@@H](NC(=O)[C@H](CCCNC(=N)N)NC(=O)[C@H](CCCNC(=N)N)NC(=O)[C@H](CC(N)=O)NC(=O)[C@H](Cc1c[nH]c2ccccc12)NC(=O)[C@H](CCCNC(=N)N)NC(=O)[C@H](Cc1c[nH]c2ccccc12)NC(=O)c1ccccc1)[C@@H](C)O)C(=O)NCC(=O)N1CCC[C@H]1C(N)=O,circular dichroism,phosphate buffer,"30 µM, pH 6.5",,melting temperature,31.7 °C
CCCCCCCCCCCCCCCC(=O)N[C@@H](CCC(=O)NCCOCCOCCC(=O)NCCOCCOCCC(=O)NCCCC[C@H](NC(=O)[C@H](CC(=O)O)NC(=O)[C@H](CC(C)C)NC(=O)[C@H](Cc1ccc(O)cc1)NC(=O)[C@H](CCCCN)NC(=O)[C@H](CO)NC(=O)[C@H](Cc1ccc(O)cc1)NC(=O)[C@H](CC(=O)O)NC(=O)[C@H](CO)NC(=O)[C@@H](NC(=O)[C@H](Cc1ccccc1)NC(=O)[C@@H](NC(=O)CNC(=O)[C@H](CCC(N)=O)NC(=O)[C@@H](CO)NC(=O)[C@@H](N)Cc1c[nH]cn1)[C@@H](C)O)[C@@H](C)O)C(=O)N[C@@H](CCCNC(=N)N)C(=O)N[C@@H](CCCNC(=N)N)C(=O)N[C@@H](C)C(=O)N[C@@H](CCC(N)=O)C(=O)N[C@@H](CC(=O)O)C(=O)N[C@@H](Cc1ccccc1)C(=O)N[C@H](C(=O)N[C@@H](CCC(N)=O)C(=O)N[C@@H](Cc1c[nH]c2ccccc12)C(=O)N[C@@H](CC(C)C)C(=O)N[C@@H](CC(C)C)C(=O)N[C@@H](CC(N)=O)C(=O)N[C@H](C(=O)NCC(=O)NCC(=O)N1CCC[C@H]1C(=O)N[C@@H](CO)C(=O)N[C@@H](CO)C(=O)NCC(=O)N[C@@H](C)C(=O)N1CCC[C@H]1C(=O)N1CCC[C@H]1C(=O)N1CCC[C@H]1C(=O)N[C@@H](CO)C(N)=O)[C@@H](C)O)C(C)C)C(=O)O,,"rhesus monkey, plasma","subcutaneous, 60 µg/kg",,bioavailability,27.5%
CSCC[C@H](NC(=O)CNC(=O)[C@H](CCCCN)NC(=O)[C@H](CC(C)C)NC(=O)[C@@H]1CCCN1C(=O)[C@H](CO)NC(=O)[C@H](Cc1c[nH]cn1)NC(=O)[C@H](Cc1c[nH]c2ccccc12)NC(=O)[C@H](CCCNC(=N)N)NC(=O)[C@H](CC(C)C)NC(=O)[C@H](CCCNC(=N)N)NC(=O)[C@H](Cc1c[nH]c2ccccc12)NC(=O)[C@H](CS)NC(=O)CCCCCNC(=O)CN1CCN(CC(=O)O)CCN(CC(=O)O)CCN(CC(=O)O)CC1)C(=O)O [copper-64 labelled],,"male C57BL/6J mice, B16-F10 tumour, intestinal lymph node","intravenous, 1.85 MBq, 0.5 h",,tissue uptake,6.17 %ID/g
CC(C)[C@@H]1NC(=O)CNC(=O)[C@H](CC(N)=O)NC(=O)[C@H](CCCNC(=N)N)NC(=O)[C@H](Cc2ccc(O)cc2)NC(=O)[C@H](C(C)C)NC(=O)[C@@H](NC(=O)[C@@H](NC(=O)[C@H](CC(N)=O)NC(=O)[C@H](Cc2c[nH]c3ccccc23)NC(=O)[C@H](C)NC(=O)[C@H](Cc2ccccc2)NC(=O)CNC(=O)[C@H](CCCCN)NC(=O)[C@H](Cc2ccccc2)NC(=O)[C@H](Cc2ccccc2)NC(=O)[C@H](CCCCN)NC(=O)OCC2c3ccccc3-c3ccccc32)C(C)C)CSSC[C@@H](C(=O)N[C@@H](Cc2c[nH]cn2)C(=O)N[C@@H](CCCNC(=N)N)C(=O)N[C@@H](CCCNC(=N)N)C(=O)N[C@@H](C)C(=O)N[C@@H](CC(N)=O)C(N)=O)NC(=O)[C@H](C(C)C)NC(=O)[C@H](CCCNC(=N)N)NC1=O,,"ICR mice, blood","intraperitoneal, 5 mg/kg, day 5",,mean platelet volume,6.77 ± 0.24 fL
CC[C@H](C)[C@H](NC(=O)[C@H](CCCCN)NC(=O)CNC(=O)[C@H](CC(C)C)NC(=O)[C@H](Cc1ccccc1)NC(=O)[C@H](CCCCN)NC(=O)[C@H](CO)NC(=O)[C@H](Cc1ccccc1)NC(=O)[C@H](Cc1c[nH]c2ccccc12)NC(=O)[C@H](CCC(N)=O)NC(=O)[C@@H](NC(=O)[C@H](Cc1ccccc1)NC(=O)CCCCCNC(=O)CN1CCN(CC(=O)O)CCN(CC(=O)O)CCN(CC(=O)O)CC1)C(C)C)C(=O)N[C@@H](CCC(=O)O)C(=O)N1CCC[C@H]1C(=O)N[C@@H](CC(=O)O)C(=O)N[C@H](C(=O)N[C@@H](CO)C(=O)N[C@@H](CCC(N)=O)C(=O)N[C@H](C(=O)N[C@@H](CCC(N)=O)C(=O)N[C@@H](CC(=O)O)C(=O)N1CCC[C@H]1C(=O)N[C@@H](CC(N)=O)C(=O)N[C@@H](CC(=O)O)C(=O)N[C@@H](CCC(N)=O)C(=O)N[C@@H](Cc1ccc(O)cc1)C(=O)N[C@@H](CCC(=O)O)C(=O)N1CCC[C@H]1C(=O)N[C@@H](Cc1ccccc1)C(=O)O)C(C)C)C(C)C [copper-64 labelled],dynamic PET,"mouse, CT26 tumour, checkpoint inhibitor-treated, tumour","intravenous, 100 µCi/mouse, 1980 s",,SUVmean,4.27 SUV
COc1ccc(CNc2ccc3c(c2)S(=O)(=O)C=C3)cc1,,"male C57BL/6 mice, blood","intraperitoneal, 20 mg/kg, day 8, group average",,mean platelet volume,5.4 fL
O=C(CN1C(=O)C2(CCN(C(=O)c3ccc4[nH]ncc4n3)CC2)c2c(Br)cccc21)NCC(F)(F)F,,"male C57BL/6 mouse, plasma","intravenous, 2 mg/kg",,Vd,4 L/kg
CSCC[C@H](NC(=O)[C@@H](NC(=O)[C@H](CC(C)C)NC(=O)[C@@H](NC(=O)[C@H](Cc1c[nH]cn1)NC(=O)CCCCCNC(=O)[C@H](CCCNC(=N)N)NC(=O)[C@H](CCCNC(=N)N)NC(=O)[C@H](CCCNC(=N)N)NC(=O)[C@H](CCC(N)=O)NC(=O)[C@H](CCCNC(=N)N)NC(=O)[C@H](CCCNC(=N)N)NC(=O)[C@H](CCCCN)NC(=O)[C@H](CCCCN)NC(=O)[C@H](CCCNC(=N)N)NC(=O)CNC(=O)[C@@H](N)Cc1ccc(O)cc1)C(C)C)C(C)C)C(=O)N[C@@H](CS)C(=O)N[C@@H](C)C(=O)N[C@H](C(N)=O)[C@@H](C)O,,C57BL/6J mice,"Alzet osmotic pump, 3 mg/kg, 8 weeks",reference: leukocytes,Baso,0%
O=C1NC2(CC2)COc2ncc(F)cc2[C@H]2COCCN2c2ccn3ncc1c3n2,,"Sprague-Dawley rat, female, serum","oral, 5 mg/kg/day, 4 weeks daily, end of recovery period",,aspartate aminotransferase activity,88.3 ± 5.8 U/L
CC(C)C[C@H](NC(=O)[C@H](CCCNC(=N)N)NC(=O)[C@H](Cc1ccccc1)NC(=O)[C@H](Cc1ccccc1)NC(=O)[C@@H](N)[C@@H](C)O)C(=O)N[C@@H](Cc1ccccc1)C(=O)N[C@@H](CC(N)=O)C(=O)N[C@@H](CCCNC(=N)N)C(=O)N[C@@H](C)C(=O)N[C@@H](CCCCN)C(=O)N[C@@H](CCCNC(=N)N)C(=O)N[C@@H](Cc1c[nH]cn1)C(=O)N[C@@H](Cc1c[nH]cn1)C(=O)NCC(=O)N[C@@H](Cc1ccc(O)cc1)C(=O)N[C@@H](CCCCN)C(=O)N[C@@H](CCCNC(=N)N)C(=O)N[C@@H](CCCCN)C(=O)N[C@@H](Cc1ccccc1)C(=O)N[C@@H](Cc1c[nH]cn1)C(=O)O,HPLC-UV,human saliva,"4 h, 37 °C, added: initial 1 mg/mL",,peptide concentration,0.358 mg/mL

# Some of these lines once more:
Compound,assay,system,conditions,scale,endpoint,result
CC(C)C[C@H](NC(=O)[C@H](CCCNC(=N)N)NC(=O)[C@H](Cc1ccccc1)NC(=O)[C@H](Cc1ccccc1)NC(=O)[C@@H](N)[C@@H](C)O)C(=O)N[C@@H](Cc1ccccc1)C(=O)N[C@@H](CC(N)=O)C(=O)N[C@@H](CCCNC(=N)N)C(=O)N[C@@H](C)C(=O)N[C@@H](CCCCN)C(=O)N[C@@H](CCCNC(=N)N)C(=O)N[C@@H](Cc1c[nH]cn1)C(=O)N[C@@H](Cc1c[nH]cn1)C(=O)NCC(=O)N[C@@H](Cc1ccc(O)cc1)C(=O)N[C@@H](CCCCN)C(=O)N[C@@H](CCCNC(=N)N)C(=O)N[C@@H](CCCCN)C(=O)N[C@@H](Cc1ccccc1)C(=O)N[C@@H](Cc1c[nH]cn1)C(=O)O,HPLC-UV,human saliva,"4 h, 37 °C, added: initial 1 mg/mL",,peptide concentration,0.358 mg/mL
